Published values gathered from unrelated publications.
Numbered parts are unrelated; each lists some results of a single study. Positions count from the first letter of the parent shown.

Study 1
Target: RNA binding protein fox-1 homolog 2, RRM domain, GST-SBP tag (RBFOX2, Homo sapiens, UniProt O43251-10, residues 100-194)
Technique: RNA Bind-n-Seq
Molecule type: RNA
Sample: in vitro
Concentration: 365 nM
Setting: natural RNA segment, single round, ends assumed
Relative to: no-protein control
Direction: higher = stronger binding
All sequences stand within: GGGAGUUCUACAGUCCGACGAUC … UGGAAUUCUCGGGUGCCAA
Target sequence (chain): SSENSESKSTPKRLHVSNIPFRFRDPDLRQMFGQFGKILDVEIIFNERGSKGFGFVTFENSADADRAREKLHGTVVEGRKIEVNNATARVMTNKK
| Oligonucleotide | RBNS enrichment (R) |
| --- | --- |
| AACGUCAGUGGAGUAAAUAUUCGACAGGCCAUAACUUGAGUCUAUUGCCUUGCCUUUAUUACAUGUACAUUUUGAAUUCUGUGACCAGUGAUUUGGGUUUUAUUUUGUAU | 0.638 |
| UUAGUGUGUAUAUAUGUCGCCCCUGUGAUGCAUAUAUACACAGGUAUUAAAUAUAUCGCUCUAUAUAAUAUUAUAUAUGUGUGUGGUAUCCAAGGAAUCUCUUCUAUUGA | 0.573 |
| GGUUCUCAUACCAGCACAUCACUAUGCAUCCGUUCGAGGGAGAGAGAGACAAAGACAAAGACUGCCUGCCUUGGAGGGUCACUGAGGGAGACCUGUGCCUGAUUUCAUUA | 13.2 |
| AAACAGGCCACGACUUGUCACUCAGCACUAACCCCCAGUUCUUGAACAGCCUCCUCCAGCCCUGCUUUAGGAUGACACAAUGAAUAACACCUAGGCAUAGAAACCAGUCU | 0.456 |
| UGUCAGGCCCUUGGACAAGAUCCAUAUUCUUAGAAAAUUAAUGAGUUCCAUCUCGUUAGGAAUUGGUUGAUGAGGUAUGGUACAUCUGCAUUUCUUUAACCAUAGCUGUA | 0.356 |
| AACGCUGACUUAGGCACUCAGAGACAUACGCCUCUUGCGGAUGCUGCAAAGCCCUGGAAGCCUGUGACUUAAAAGUCCGGAGAGGGUGGCAAUUGCUUCCUCGAAGACAU | 0.43 |
| GCUUUGGGUUUUUAGGGUUUUAAUAGGUAGACUCUGUUCUAUUAUUAGGUGUUAAGAGUUUCCAAACGUGUUUUCUUUUUUCUUUUAUUGUUUGCUUAAACUUUGAAGAA | 0.646 |
| GGGCGCCCCCGCCCUGCUGGGGCUAUUUAUUGUUUAAUUUAUUUGCUGAGGUUCCUCCAAGCAACCACCUUCUCCAGGCCCCUGGGGUGUUGAAAGUCAAAUGUGGCUGU | 0.583 |
| AGUUUGAUUUUUCUUUCCAUAUUUGAAUUAAUUUUUUCUGUUUGACUGGAAGGGGUUUUUGUAUAACUAAAACCUCAGCGCAUAAAGGAGAUUUAAAAGGAGCACAUGAU | 0.494 |
| GCCAAGGUGUUUCCAUUUCUCAAUCAGUGCAGUGAUACAUGUACUCCAGAGGGACAGGGUGGACCCCCUGAGUCAACUGGAGCAAGAAGGAAGGAGGCAGACUGAUGGCG | 0.451 |
| ACUGUAAAUGGCUUUAGUUGUAAAGUGCAUUGUGGGCCAGCAGGCCCAGAUUUCUCUUGACACCAGAAGAUGCUGAGCAAUGGUGUCAAAGGACCAGCUCCACACUGCCC | 0.537 |
| AAAGGUAUGUAACUUCUUCAUUUGAAGGAUAAGCUGGUUUGUGUUAAGCAGUAUAGUAUUGGUUGGGUCAUUUGCAUCAUAUCGUUAGCAUUUAUUUGGUGGCAGAAUGU | 1.68 |

Study 2
Target: ABI1, truncated, D143A, DHFR fusion (Arabidopsis thaliana)
Technique: DHFR PCA, deep sequencing
Sample: yeast
Setting: methotrexate growth selection, single substitutions
Added: (+)-ABA 0.39 µM
Relative to: wild-type fitted maximum
Direction: higher = stronger binding
Parent: PYL1, truncated, DHFR fusion (Arabidopsis thaliana); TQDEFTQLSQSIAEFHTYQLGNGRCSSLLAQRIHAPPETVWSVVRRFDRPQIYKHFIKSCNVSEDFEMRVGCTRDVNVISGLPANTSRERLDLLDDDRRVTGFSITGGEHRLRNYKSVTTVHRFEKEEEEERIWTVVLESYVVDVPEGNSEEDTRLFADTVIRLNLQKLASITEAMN; partner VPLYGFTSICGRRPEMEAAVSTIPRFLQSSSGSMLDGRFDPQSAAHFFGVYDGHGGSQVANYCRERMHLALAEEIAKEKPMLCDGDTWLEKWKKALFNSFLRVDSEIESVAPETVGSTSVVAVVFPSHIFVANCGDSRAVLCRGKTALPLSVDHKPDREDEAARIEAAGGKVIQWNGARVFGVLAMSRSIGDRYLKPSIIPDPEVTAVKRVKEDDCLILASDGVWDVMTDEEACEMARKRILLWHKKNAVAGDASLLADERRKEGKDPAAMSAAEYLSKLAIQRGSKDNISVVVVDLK
| Substitution | relative binding score |
| --- | --- |
| N177Q | 22.7% |
| L169Y | -10% |
| R98P | -1.27% |
| I79F | 35.6% |
| E89H | 2.93% |
| W41S | 2.31% |
| C60D | 1.09% |
| L93E | -5.41% |
| T135M | -3.07% |
| R155Y | -0.557% |
| L94R | 5.02% |
| V78N | 39.2% |
| E38Q | 11.7% |
| L138Y | -2.66% |
| T154P | -15.7% |
| F124V | 48.2% |

Study 3
Target: Centromere-binding protein 1, full length, N-terminal tag (CBF1, Saccharomyces cerevisiae, UniProt P17106, residues 1-351)
UniProt P17106, sequence (whole entry, looked up): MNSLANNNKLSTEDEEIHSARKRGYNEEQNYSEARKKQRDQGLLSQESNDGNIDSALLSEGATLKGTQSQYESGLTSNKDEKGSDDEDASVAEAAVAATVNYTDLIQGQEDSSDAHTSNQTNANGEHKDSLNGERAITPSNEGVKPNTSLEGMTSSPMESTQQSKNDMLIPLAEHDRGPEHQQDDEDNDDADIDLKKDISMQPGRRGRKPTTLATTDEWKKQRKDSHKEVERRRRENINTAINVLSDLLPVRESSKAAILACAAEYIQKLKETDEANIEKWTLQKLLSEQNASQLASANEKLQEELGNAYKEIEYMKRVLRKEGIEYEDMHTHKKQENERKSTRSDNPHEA
Technique: protein-binding microarray
Molecule type: double-stranded DNA, one strand shown
Sample: in vitro
Concentration: 0.8 µM
Setting: whole 60-bp probe, no competitor
Direction: higher = stronger binding
All sequences stand within: … GTCTTGATTCGCTTGACGCTGCTG
| Oligonucleotide | fluorescence intensity [a.u.] |
| --- | --- |
| CTAGTTAGTTTTTCTGCTGATATATATCTTTCTTTC | 521 |
| GAAATACATTTACATCAGGTAAAGTATCATTTTTAG | 492 |
| GAAATCCTGCGCGATCACGTAACATGCTATGAATAG | 685 |
| GAACTCTTGTCCCATGTCAGGTGTAAAACTGACTAG | 1090 |
| TGTACGAAGCTATGTCTGATGACTATAGTAGTTAGG | 570 |
| CTAACGGACACTTCTGATGTTTCAAAAGATATTTTC | 546 |
| CTACCAACAAAGCATCACGCTGTCGTATCTCAATTC | 636 |
| GAATTTTCATAATGTCACGTGCACTATCAATAATAG | 19400 |
| CTAAATCGCATTATATACGTGGCACCTACAGTCTTC | 491 |
| CTAAAAATAATAAATGGTCACGTTGGCATAAGTTTC | 4170 |
| GAATTTGCTTGTTCTTTCGTGATTACGAAACCCTAG | 552 |
| GAATACTTATGTATTTGCGTGATAAACTTGCTTTAG | 541 |
| CTAAATTTTCAATAGCATGTGCATATGTTTAATTTC | 804 |
| GAATCACAAGGATTTCACGAGGATTTCTAACACTAG | 579 |
| CTATACCATCCCGATGGTGATGGTTGTGAATGCTTC | 482 |
| GAATTCACTTTGAGTCACCACGTAGCAATTCTTTAG | 556 |
| CTACCCATCGCATATCAGGAGAACTTCCCTGTGTTC | 524 |
| CTAAAATAGCTAACGCACGTATCGAATACCAAATTC | 500 |
| GAATTGTTTTTATCAGTTGAGATTGAAGTATTTTAG | 553 |
| GAAGCCATTGCTTACCGCGTGCAAGATCCGTAATAG | 592 |
| GAACTTTTGTTTTAACACGTTGAGACTATCTAATAG | 580 |
| GAACAAGAGAAATTTCATGACACTTTTTTAAACTAG | 525 |
| GAATGACATATTAAACACGTACCTCGTGATGCGTAG | 2840 |
| GAAAACGGCCAATGTGACACCAGTTCACTCGGCTAG | 613 |
| CTATTAAAGACAGGCAGCAGGTGAAGATAATACTTC | 534 |

Study 4
Target: CREBRF, bZIP domain (human)
Technique: DHFR protein complementation
Sample: yeast
Setting: single substitutions, most at no-binding floor
Relative to: wild-type JUN-FOS pair
Direction: higher = stronger binding
Parent: JUN, bZIP domain (human); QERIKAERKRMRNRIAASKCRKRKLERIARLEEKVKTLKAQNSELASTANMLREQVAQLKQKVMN; partner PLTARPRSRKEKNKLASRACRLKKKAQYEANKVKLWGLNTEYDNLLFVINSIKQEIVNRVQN
| Substitution | binding fitness |
| --- | --- |
| A46I | -1.42 natural log |
| K36F | -1.47 natural log |
| M51C | -1.46 natural log |
| S43L | -1.39 natural log |
| V35R | -1.54 natural log |
| N42H | -1.32 natural log |
| S47G | -1.39 natural log |
| L45C | -1.53 natural log |
| A57M | -1.24 natural log |
| V35K | -1.51 natural log |
| K34H | -1.39 natural log |
| E33R | -1.3 natural log |
| T48R | -1.38 natural log |
| T37N | -1.49 natural log |
| V56R | -1.51 natural log |
| A46P | -1.54 natural log |
| S43E | -1.34 natural log |
| A46H | -1.37 natural log |
| I28T | -1.42 natural log |
| L31M | -1.54 natural log |
| E32F | -1.39 natural log |
| Q41H | -1.37 natural log |
| A29K | -1.49 natural log |
| R30K | -1.39 natural log |
| E33L | -1.48 natural log |

Study 5
Target: CCNB2, cyclin fold, Cln2 fusion (human)
Technique: yeast growth competition, sequencing
Sample: yeast
Setting: weak parent motif
Relative to: not given
Direction: higher = stronger binding
Parent: E2F3 docking peptide (human); PPAKRRLELGESG
| Substitution | normalised enrichment score |
| --- | --- |
| L7A | 0.344 |
| E11A | 0.562 |
| P2A | 0.26 |
| R5A | 0.402 |
| R5A L7A | 0.123 |
| R5K L9F | 0.398 |
| L9A | 0.232 |
| K4A | 0.229 |
| L9F | 1.08 |

Excerpt of the above (study 3):
| Oligonucleotide | fluorescence intensity [a.u.] |
| --- | --- |
| GAATGACATATTAAACACGTACCTCGTGATGCGTAG | 2840 |
| GAATTTGCTTGTTCTTTCGTGATTACGAAACCCTAG | 552 |
| GAATCACAAGGATTTCACGAGGATTTCTAACACTAG | 579 |
| CTAAATCGCATTATATACGTGGCACCTACAGTCTTC | 491 |
| GAATTCACTTTGAGTCACCACGTAGCAATTCTTTAG | 556 |
| GAATTTTCATAATGTCACGTGCACTATCAATAATAG | 19400 |
| GAAATACATTTACATCAGGTAAAGTATCATTTTTAG | 492 |
| GAACTCTTGTCCCATGTCAGGTGTAAAACTGACTAG | 1090 |
| CTAAAAATAATAAATGGTCACGTTGGCATAAGTTTC | 4170 |
| CTACCAACAAAGCATCACGCTGTCGTATCTCAATTC | 636 |
| CTATTAAAGACAGGCAGCAGGTGAAGATAATACTTC | 534 |
